Assay results of several laboratories.
Each numbered part is a random draw from the data of one study; scales do not carry over between parts. Changes are numbered by the printed parent chain.

Sample 1
Target: UBE2A UBC core domain (UniProt P49459)
UniProt P49459, sequence (whole entry, looked up): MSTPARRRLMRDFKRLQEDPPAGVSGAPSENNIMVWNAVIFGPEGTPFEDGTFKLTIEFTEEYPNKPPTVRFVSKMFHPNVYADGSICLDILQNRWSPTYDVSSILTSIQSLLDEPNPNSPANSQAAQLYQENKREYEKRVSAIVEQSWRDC
Method: yeast two-hybrid
Matrix: yeast
Notes: mostly zero background
Baseline: not given
Direction: higher = stronger interaction
Measurement: lacZ reporter activity
B1: RNF31 RING domain (UniProt Q96EP0); chain AFLRRLLAQECAVCGWALPHNRMQALTSCECTICPDCFRQHFTIALKEKHITDMVCPACGRPDLTDDTQLL
B2: MYCBP2 RING domain (UniProt O75592); chain TSLKQDADDMCMICFTEALSAAPAIQLDCSHIFHLQCCRRVLENRWLGPRITFGFISCPICKNKINHIVLKD
B3: RNF152 RING domain (UniProt Q8N8N0); chain ETLSQDSLLECQICFNYYSPRRRPKLLDCKHTCCSVCLQQMRTSQKDVRCPWCRGVTKLPPGFS
B4: TRIM31 RING domain (UniProt Q9BZY9); chain FVNKLQEEVICPICLDILQKPVTIDCGHNFCLKCITQIGETSCGFFKCPLCKTSVRKNAIRF
B5: MEX3B RING domain (UniProt Q6ZN04); chain SGLRRKGSRDCSVCFESEVIAALVPCGHNLFCMECANRICEKSEPECPVCHTAVTQAIRIF
B6: RNF2 RING domain (UniProt Q99496); chain SPRSLHSELMCPICLDMLKNTMTTKECLHRFCADCIITALRSGNKECPTCRKKLVSKRSLR
B1 (RNF31 RING domain): 0
B2 (MYCBP2 RING domain): 0
B3 (RNF152 RING domain): 0
YPEEVDDDLICHICLQALLDPLDTPCGHTYCTLCLTNFLVEKDFCPMDRKPLVLQHCKK (LNX1 RING domain (UniProt Q8TBB1)): 0
B4 (TRIM31 RING domain): 0
LDAASGHPLVCPLCHGQYERPCLLDCFHDFCTGCLRGRATDGRLSCPLCQHQTLVKGPSG (Rnf207 RING domain (UniProt Q3V3A7)): 0
B5 (MEX3B RING domain): 0
B6 (RNF2 RING domain): 0
KPDKMEETLTCIICQDLLHDCVSLQPCMHTFCAACYSGWMERSSLCPTCRCPVERICKNH (CHFR RING domain (UniProt Q96EP1)): 0
YCEMGSTFQLCKICAENDKDVKIEPCGHLMCTSCLTAWQESDGQGCPFCRCEIKGTEPII (CBLB RING domain (UniProt Q13191)): 0
FVKTVEDKYKCEKCHLVLCSPKQTECGHRFCESCMAALLSSSSPKCTACQESIVKDKVF (TRAF3 RING domain (UniProt Q13114)): 0

Sample 2
Target: Eukaryotic initiation factor 4A-I (EIF4A1, Homo sapiens, UniProt P60842, residues 1-406, full length assumed)
UniProt P60842, sequence (whole entry, looked up): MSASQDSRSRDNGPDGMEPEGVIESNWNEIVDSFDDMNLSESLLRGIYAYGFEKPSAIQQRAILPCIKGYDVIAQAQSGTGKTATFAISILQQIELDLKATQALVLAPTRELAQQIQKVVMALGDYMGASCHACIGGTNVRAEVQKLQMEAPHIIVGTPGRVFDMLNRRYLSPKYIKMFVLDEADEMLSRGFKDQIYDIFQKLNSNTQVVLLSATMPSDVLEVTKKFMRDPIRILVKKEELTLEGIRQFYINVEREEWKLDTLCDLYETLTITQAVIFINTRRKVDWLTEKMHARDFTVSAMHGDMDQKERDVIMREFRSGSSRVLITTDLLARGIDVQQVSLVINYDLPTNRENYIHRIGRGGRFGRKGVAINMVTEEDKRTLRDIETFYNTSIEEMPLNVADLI
Method: RNA Bind-n-Seq
Form: RNA
Matrix: in vitro
Tested at: 15 pmol
Notes: 4-mer, random 30-nt RNA, single round
With: 3 µM DMDA-PatA, 2 mM AMP-PNP
Baseline: input library
Direction: higher = stronger binding
Measurement: 4-mer enrichment
UCAG: 0.507 fold
CCUA: 0.829 fold
AACG: 0.711 fold
UACC: 0.517 fold
CGUG: 1.1 fold
UGCG: 1.23 fold
AUAC: 0.774 fold
AAUG: 1.17 fold

Sample 3
Change: V161S
Target: ABI1, truncated, D143A, DHFR fusion (Arabidopsis thaliana)
Method: DHFR PCA, deep sequencing
Matrix: yeast
Notes: methotrexate growth selection, single substitutions
Baseline: wild-type fitted maximum
Direction: higher = stronger binding
Measurement: relative binding score
Parent: PYL1, truncated, DHFR fusion (Arabidopsis thaliana); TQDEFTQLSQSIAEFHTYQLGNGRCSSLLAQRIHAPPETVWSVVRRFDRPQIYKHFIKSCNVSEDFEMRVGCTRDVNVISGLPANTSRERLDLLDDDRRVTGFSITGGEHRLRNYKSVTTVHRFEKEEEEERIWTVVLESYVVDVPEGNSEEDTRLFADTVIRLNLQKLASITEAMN
with: (+)-ABA 0.11 µM: 5.6%
with: (+)-ABA 1.4 µM: 14%
with: (+)-ABA 4.8 µM: -11.1%
with: (+)-ABA 0.0091 µM: 4.14%
with: (+)-ABA 0 µM: 13%
with: (+)-ABA 0.032 µM: 6.99%

Sample 4
Target: CCNE1, cyclin fold, Cln2 fusion (human)
Method: yeast growth competition, sequencing
Matrix: yeast
Notes: strong parent motif
Baseline: not given
Direction: higher = stronger binding
Measurement: normalised enrichment score
Parent: viral docking peptide; KGVKRKLFAEDSS; partner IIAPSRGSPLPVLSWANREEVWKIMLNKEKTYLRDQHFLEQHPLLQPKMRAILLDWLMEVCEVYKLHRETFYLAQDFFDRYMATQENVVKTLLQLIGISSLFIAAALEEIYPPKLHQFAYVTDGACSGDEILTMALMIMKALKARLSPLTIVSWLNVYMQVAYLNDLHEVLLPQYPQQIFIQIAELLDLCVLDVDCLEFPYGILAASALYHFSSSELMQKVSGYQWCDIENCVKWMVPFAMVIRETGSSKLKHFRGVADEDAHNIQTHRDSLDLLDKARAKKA
KGVHRKLFAEDSS [K4H]: 3.42
KGVVRKLFAEDSS [K4V]: 7.24
KGVKRCLFAEDSS [K6C]: 6.24

For quick reference, copied from above (sample 4):
KGVKRCLFAEDSS [K6C]: 6.24
KGVVRKLFAEDSS [K4V]: 7.24
KGVHRKLFAEDSS [K4H]: 3.42
